Results pooled from the literature.
A part holds a random share of what one study measured.

Block 1
Target: Centromere-binding protein 1, full length, N-terminal tag (CBF1, Saccharomyces cerevisiae, UniProt P17106, residues 1-351)
Chain of UniProt P17106 (whole entry, looked up): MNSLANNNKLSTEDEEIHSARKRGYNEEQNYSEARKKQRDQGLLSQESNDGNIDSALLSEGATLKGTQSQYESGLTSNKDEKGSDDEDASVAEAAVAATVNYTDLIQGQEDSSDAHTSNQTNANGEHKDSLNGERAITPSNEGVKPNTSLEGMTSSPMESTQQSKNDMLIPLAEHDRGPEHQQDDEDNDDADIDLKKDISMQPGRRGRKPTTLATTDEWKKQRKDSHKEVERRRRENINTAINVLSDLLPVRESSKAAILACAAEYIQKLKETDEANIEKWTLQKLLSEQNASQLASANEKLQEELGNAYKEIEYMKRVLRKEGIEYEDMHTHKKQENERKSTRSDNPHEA
Technique: protein-binding microarray
Form: double-stranded DNA, one strand shown
Sample: in vitro
Concentration: 0.8 µM
Setting: whole 60-bp probe, no competitor
Direction: higher = stronger binding
All sequences stand within: … GTCTTGATTCGCTTGACGCTGCTG
Oligonucleotide	fluorescence intensity [a.u.]
GAATTAAATACTAACAACGTGCCAAATAACAGCTAG	1050
GAAAATGATTATGGGTGCGTGATCACCAATCTGTAG	1880
GAAATGATGCTCCACGTGGTAATATGACTATGCTAG	4700
GAACAATTCTAATTAAACGTGCACAGATCTTTTTAG	669
GAAGAAAAGAAACACCGCGTGGTGCATCTATGTTAG	699
GAAAACCGTCCCTGTCACGCTGGTGCCCCCACATAG	644

Block 2
Target: RNA binding protein fox-1 homolog 2, RRM domain, GST-SBP tag (RBFOX2, Homo sapiens, UniProt O43251-10, residues 100-194)
Technique: RNA Bind-n-Seq
Form: RNA
Sample: in vitro
Concentration: 365 nM
Setting: natural RNA segment, single round, ends assumed
Reference: no-protein control
Direction: higher = stronger binding
All sequences stand within: GGGAGUUCUACAGUCCGACGAUC … UGGAAUUCUCGGGUGCCAA
Oligonucleotide	RBNS enrichment (R)
AGUAUUCUUUUAUCAUAAAUUUUUAGCAUUUAAAAAUUCACUGAUGUACAUUAAGCCAAUAAACUGCUUUAAUGAAUAACAAACUAUGUAGUGUGUCCCUAUUAUAAAUG	0.506
UACUCUGUUGCUGGCUUUAGCAGAGAAUAGGAGGAACCAUAUGAAAAAGAUCAGGCUUUCUGACUUCCAUCCCCAAAACACAUUUACCAGCAUACUCCAAACUGUUUCUG	0.795
UUUUUGAAAUGUGUAUUUCUAAUUAUAUAAAAUAUUAAGAAUCUUUUAAAAAUCUGUGAAAUUAACAUGCUUGUGUAUAGCUUUCUAAUAUAUAUAAUAUUAUGGUAAUG	2.79
UUCCCACCCAGGAAAGGAGGACCAGUCAGGAUGAGGCCCCGCCUUUUCCCCCACCCUCCCAUGAGACUGCCCUGCCCAGGUAUCCUGGGGGAAGAGGAGAUGUGAUCAGG	0.513
UCUUGUCCCUGGUUUCCUUAUGUGUUGAAUGUGGUUGAGUUUGUCCAUUGCUAGGGAGAGACUUCCAGUAAUAAAAUUUACUAUUCUAGAUGCUUCUACUGUUAUGUUUU	6
UCUAAAAUUAAGUUUACCAAAGGCAAAUAACUGCUUACUAGGAACUUCCUUUAGCAAAAAUUACUAUAAAGUUCAGGACAGUUUGAAAUAAAACCCAGGAAACAAGAUUA	0.436

Block 3
Target: Interferon regulatory factor 5, full length, phosphomimetic (IRF5, Homo sapiens, UniProt Q13568-2, residues 1-514, K96S/S451D/S453D/S456D/S462D)
Technique: protein-binding microarray
Form: double-stranded DNA, one strand shown
Sample: in vitro
Concentration: 250 nM
Setting: 60-bp whole probe
With: salmon DNA 0.4 mg/ml
Reference: random background probes
Direction: higher = stronger binding
All sequences stand within: GCCTAGCAC … GTCTTGATTCGCTTGACGCTGCTG
Oligonucleotide	log fluorescence [z-score]
ATGCCCCCCAAGAGGGGCGGGTGCTAG	-0.227
GACGATATAGGGTATCGAGACGTGCTA	0.553
TCAGAATTTACTTTCTAACTGTGCTAG	1.74
GACGGTATCGGTTTCGGCACGTGCTAG	8.77
GACGATTTTGGGTATCGAGACGTGCTA	1.09

Other studies, line by line
Molecule	target	test	test system	conditions	scale	endpoint	value
PhoQ, residues 284 288 289 292 302 303 AQGLTV	PhoP, residues 12 14 15 18 19 NYFTV (Escherichia coli, UniProt P23836)	Sort-seq, item: YFP reporter	E. coli	PhoQ-PhoP variant library, with: 10 µM Mg2+	reference: high Mg2+ state, higher = stronger signaling	fold induction	0.842

For quick reference, copied from above (block 2):
Oligonucleotide	RBNS enrichment (R)
UCUAAAAUUAAGUUUACCAAAGGCAAAUAACUGCUUACUAGGAACUUCCUUUAGCAAAAAUUACUAUAAAGUUCAGGACAGUUUGAAAUAAAACCCAGGAAACAAGAUUA	0.436
